# Values quoted from earlier work that unrelated publications cite.
# Compare with care: the assays were run in different laboratories. Numbers after ± are the reported error.
Compound,tested on,test,system,conditions,how to read,quantity,value
O=S(=O)(c1ccc(-c2ccc3ncnc(Nc4ccccc4)c3c2)cc1)N1CCOCC1,Trypanosoma brucei,parasite growth,,,,EC50,1400 nM
O=C(c1cccc(Nc2nc3ccccc3n3nnnc23)c1)N1CCc2ccccc2C1,Plasmodium,parasite growth,,,,IC50,3440 nM
CCOC(=O)[C@H]1c2ccc3ccccc3c2O[C@@H]2c3ccccc3CCN21,Staphylococcus aureus,efflux pump inhibition,ATCC 25923,50 µM,reference: untreated cells,relative fluorescence index,0.61
CN(C)S(=O)(=O)c1ccccc1-c1ccc2ncnc(Nc3ccc(OCc4cccc(F)c4)c(Cl)c3)c2c1,Trypanosoma brucei,parasite growth,,,,EC50,1000 nM
COc1cc2c(cc1OC)C(c1c[nH]c3ccccc13)NCC2 (stereo not shown),Escherichia coli,efflux pump inhibition,AG100 AcrAB-TolC expressing,50 µM,reference: untreated cells,relative fluorescence index,0.33
O=S(=O)(c1cccc(-c2ccc3ncnc(Nc4ccc(OCc5cccc(F)c5)c(Cl)c4)c3c2)c1)N1CCCCC1,Trypanosoma brucei,parasite growth,,,,EC50,460 nM
NS(=O)(=O)c1nnc(NC(=O)C2CCCCC2)s1,Enterococcus faecalis,,NR-31972,,,MIC,1.72 µM
CC(C)C[C@@H](NC(=O)[C@H](C)NC(=O)CNC(=O)[C@@H](NC=O)C(C)C)C(=O)N[C@@H](C)C(=O)N[C@@H](C(=O)N[C@H](C(=O)N[C@@H](C(=O)N[C@@H](Cc1c[nH]c2ccccc12)C(=O)N[C@H](CC(C)C)C(=O)N[C@@H](Cc1c[nH]c2ccccc12)C(=O)N[C@H](CC(C)C)C(=O)N[C@@H](Cc1c[nH]c2ccccc12)C(=O)N[C@@H](C(=O)N[C@@H](Cc1c[nH]c2ccccc12)C(=O)NCCO)C(C)C)[C@H](C)O)C(C)C)C(C)C,Streptococcus pneumoniae,,NBRC 102642,,,MIC,0.0083 µM
CCN(CC)CC#CCNc1ccnc2cc(Cl)ccc12,Plasmodium falciparum,"parasite growth, SYBR Green I",K1,average of experiments,,IC50,50 nM
CN1CCN(S(=O)(=O)c2ccc(-c3ccc4ncnc(Nc5ccc(OCc6ccccc6)cc5)c4c3)cc2)CC1,Trypanosoma brucei,parasite growth,,,,EC50,630 nM
c1ccc2c(c1)CCNC2c1c[nH]c2ccncc12 (stereo not shown),Escherichia coli,efflux pump inhibition,AG100A AcrAB-TolC deleted,50 µM,reference: untreated cells,relative fluorescence index,0.42
COc1cc(Nc2ncnc3ccc(-c4ccc(S(=O)(=O)N5CCOCC5)cc4)cc23)ccc1OCc1cccc(F)c1,Trypanosoma brucei,parasite growth,,,,EC50,1900 nM
Cc1nnc(-c2nn(-c3ccc(C(=O)N4CCCC(C)C4)cc3)c(-c3ccc(F)cc3)c2C)o1 (stereo not shown),Plasmodium,parasite growth,,,,IC50,5550 nM
c1ccc2c(c1)CCNC2c1c[nH]c2cccnc12 (stereo not shown),Staphylococcus aureus,efflux pump inhibition,ATCC 25923,50 µM,reference: untreated cells,relative fluorescence index,-0.14
CN1CCN(Cc2cccc(CC(O)Cn3c4ccccc4c4ccccc43)c2)CC1 (stereo not shown),Plasmodium,parasite growth,,,,IC50,994 nM
c1ccc2c(c1)CCCNC2c1c[nH]c2ncccc12 (stereo not shown),Staphylococcus aureus,,reference strains,,,MIC,50 µM
CCCCCCCCCC(=O)NC1CCCC1,Pseudomonas aeruginosa,rhamnolipid production,PAO1,250 µM,,inhibition,85%
c1ccc2c(C3NCCc4sccc43)c[nH]c2c1 (stereo not shown),Escherichia coli,efflux pump inhibition,AG100 AcrAB-TolC expressing,50 µM,reference: untreated cells,relative fluorescence index,0.56
Fc1cccc(COc2ccc(Nc3ncnc4ccc(-c5cccc(N6CCCCC6)c5)cc34)cc2Cl)c1,Trypanosoma brucei,parasite growth,,,,EC50,760 nM
CN1CCN(C(=O)c2cccc(CC(O)Cn3c4ccc(Cl)cc4c4cc(Cl)ccc43)c2)CC1 (stereo not shown),Plasmodium,parasite growth,,,,IC50,1130 nM
COc1ccc(Nc2nc(Nc3ccc(OCC[18F])cc3)ncc2Br)cc1,,,"S180 tumour-bearing mice, tumor","intravenous, 60 min",,tissue uptake,3.23 ± 0.14 %ID/g
c1ccc2c3c([nH]c2c1)C(c1c[nH]c2ncccc12)NCC3 (stereo not shown),Staphylococcus aureus,efflux pump inhibition,ATCC 25923,50 µM,reference: untreated cells,relative fluorescence index,-0.25
CCCCCOc1ccc(-c2ccc3ncnc(Nc4ccc(OCc5cccc(F)c5)c(Cl)c4)c3c2)c(F)c1F,Trypanosoma brucei,parasite growth,,,,EC50,6600 nM
CCOC(=O)[C@H]1c2ccc3ccccc3c2O[C@@H]2c3ccsc3CCN21,Staphylococcus aureus,efflux pump inhibition,ATCC 25923,50 µM,reference: untreated cells,relative fluorescence index,0.33
NS(=O)(=O)c1nnc(NC(=O)CCc2ccccc2)s1,Enterococcus faecalis,,NR-31972,,,MIC,0.384 µM
CNC(C)CCCC(O)Cn1c2ccc(Cl)cc2c2cc(Cl)ccc21 (stereo not shown),Plasmodium,parasite growth,,,,IC50,1560 nM
CN1CCN(S(=O)(=O)c2ccc(-c3ccc4ncnc(Nc5ccc(F)cc5)c4c3)cc2)CC1,Trypanosoma brucei,parasite growth,,,,EC50,2000 nM
O=C(CCCOc1cccc(Br)c1)N[C@H]1CCSC1=O,Pseudomonas aeruginosa,biofilm flow-chamber clogging time,PA14,concentration not given,,reduction,60%

# A few entries again:
Compound,tested on,test,system,conditions,how to read,quantity,value
NS(=O)(=O)c1nnc(NC(=O)CCc2ccccc2)s1,Enterococcus faecalis,,NR-31972,,,MIC,0.384 µM
CNC(C)CCCC(O)Cn1c2ccc(Cl)cc2c2cc(Cl)ccc21 (stereo not shown),Plasmodium,parasite growth,,,,IC50,1560 nM
CN1CCN(S(=O)(=O)c2ccc(-c3ccc4ncnc(Nc5ccc(F)cc5)c4c3)cc2)CC1,Trypanosoma brucei,parasite growth,,,,EC50,2000 nM
